Values quoted from earlier work as cited in several papers.
Compare with care: the assays were run in different laboratories. Values joined by “and” are separate records of one study, mostly repeats; a detail may differ. ± marks the error that the study gave.
Sequence of UniProt Q9NRP7 (whole entry, looked up): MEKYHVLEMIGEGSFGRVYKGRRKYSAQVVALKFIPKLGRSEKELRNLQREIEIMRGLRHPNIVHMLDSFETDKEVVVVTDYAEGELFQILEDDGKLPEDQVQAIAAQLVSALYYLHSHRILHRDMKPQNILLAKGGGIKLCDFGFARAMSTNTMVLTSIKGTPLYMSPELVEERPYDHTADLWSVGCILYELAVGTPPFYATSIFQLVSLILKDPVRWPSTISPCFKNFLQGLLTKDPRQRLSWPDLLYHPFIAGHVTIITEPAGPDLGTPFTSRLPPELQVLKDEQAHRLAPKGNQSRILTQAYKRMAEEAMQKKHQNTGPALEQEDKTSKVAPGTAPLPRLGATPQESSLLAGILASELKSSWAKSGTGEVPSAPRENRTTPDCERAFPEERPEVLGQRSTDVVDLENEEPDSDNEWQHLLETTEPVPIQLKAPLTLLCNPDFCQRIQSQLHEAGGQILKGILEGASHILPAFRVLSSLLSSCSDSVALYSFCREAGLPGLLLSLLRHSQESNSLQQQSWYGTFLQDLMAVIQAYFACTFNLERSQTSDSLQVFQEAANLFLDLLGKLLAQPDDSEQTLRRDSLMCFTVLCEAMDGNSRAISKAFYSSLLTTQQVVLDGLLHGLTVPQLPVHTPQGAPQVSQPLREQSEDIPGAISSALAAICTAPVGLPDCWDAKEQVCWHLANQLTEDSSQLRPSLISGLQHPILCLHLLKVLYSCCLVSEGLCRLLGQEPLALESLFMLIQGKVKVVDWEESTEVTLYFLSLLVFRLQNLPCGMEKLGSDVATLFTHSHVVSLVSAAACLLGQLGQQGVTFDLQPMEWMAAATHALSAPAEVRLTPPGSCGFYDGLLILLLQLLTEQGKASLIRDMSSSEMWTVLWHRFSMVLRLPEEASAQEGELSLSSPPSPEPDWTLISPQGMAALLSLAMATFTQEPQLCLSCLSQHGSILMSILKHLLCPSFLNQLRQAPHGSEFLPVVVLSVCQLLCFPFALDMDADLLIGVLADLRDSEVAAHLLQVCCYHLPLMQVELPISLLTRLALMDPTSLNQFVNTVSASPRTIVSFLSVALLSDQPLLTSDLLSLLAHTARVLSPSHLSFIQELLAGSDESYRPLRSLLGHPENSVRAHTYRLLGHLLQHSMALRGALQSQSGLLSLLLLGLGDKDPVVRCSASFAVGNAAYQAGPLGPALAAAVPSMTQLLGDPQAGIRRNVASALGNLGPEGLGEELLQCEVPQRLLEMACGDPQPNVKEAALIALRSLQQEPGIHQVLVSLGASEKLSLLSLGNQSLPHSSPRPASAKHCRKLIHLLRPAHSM

With `Nc1ccccc1NC(=O)c1ccc(CNC(=O)OCc2cccnc2)cc1` the IC50 was 2960 ± 170 nM (CAL-27; cell viability, MTT; 72 h).
`CNC(C)C1CCC(N)C(OC2C(N)CC(N)C(OC3OCC(C)(O)C(NC)C3O)C2O)O1` (centres unmarked) has an MIC of greater than 8 µg/mL (Escherichia coli; clinical isolate RKI-No_97/15).
With `C[C@H]1COCCN1c1nc(-c2cnc(N)cc2C(F)F)nc(N2CCOCC2)n1` the GI50 was 468 nM (ASPC1).
The efflux ratio of `Cc1nc(-c2nnc3n2CCN(C(=O)c2ccc(-c4cccs4)cc2)[C@@H]3C)cs1` is reported as 0.9 (Caco-2; with: 0.1% BSA).
Under “Papp A to B”, `CN(C)C/C=C/C(=O)Nc1cc2c(Nc3ccc(F)c(Cl)c3)ncnc2cc1O[C@H]1CCOC1` is recorded as 2.08 ± 0.56 ×10⁻⁶ cm/s (Caco-2; 3 µM).
For `CC1(C)S[C@@H]2[C@H](NC(=O)[C@H](N)c3ccccc3)C(=O)N2[C@H]1C(=O)O`, the MIC was greater than 16 µg/mL (Escherichia coli; clinical isolate RKI-No_514/16).
`CC#CCn1c(N2CCC[C@@H](N)C2)nc2c1c(=O)n(Cc1nc(C)c3ccccc3n1)c(=O)n2C`: activity outcome “inactive” (HepG2; mitochondrial membrane potential; concentration not given, Tox21).
For `CCC(CC)COC(=O)[C@H](C)N[P@](=O)(OC[C@H]1O[C@@](C#N)(c2ccc3c(N)ncnn23)[C@H](O)[C@@H]1O)Oc1ccccc1`, the CC50 was greater than 100000 nM (Calu-3; cytotoxicity).
For `COC(=O)c1ccc2c(c1)NC(=O)/C2=C(\Nc1ccc(N(C)C(=O)CN2CCN(C)CC2)cc1)c1ccccc1`, mitochondrial toxicity read “active” (HepG2; mitochondrial membrane potential; concentration not given, Tox21).
The IC50 of `COc1cccc2c1C(=O)c1c(O)c3c(c(O)c1C2=O)C[C@@](O)(C(=O)CO)C[C@@H]3O[C@H]1C[C@H](N)[C@H](O)[C@H](C)O1` is reported as 3120 nM and 2960 nM (COLO 320 ABCB1-resistant colon; cytotoxicity).
For `CN(C)c1ccc(C(=O)N(CC(=O)NCc2ccccc2)Cc2ccc(C(=O)Nc3ccccc3N)cc2)cc1`, the IC50 was 2630 ± 310 nM (Cal27CisR; cell viability, MTT; 72 h).
For `O=C(O)c1cn(C2CC2)c2cc(N3CCNCC3)c(F)cc2c1=O`, activity outcome read “inactive” (HepG2; mitochondrial membrane potential; concentration not given, Tox21).
The remaining activity of `Nc1cc(C(F)(F)F)c(-c2nc(N3CCOCC3)nc(N3CCOCC3)n2)cn1` is reported as 86% (STK36 (Homo sapiens, UniProt Q9NRP7); enzyme activity; 10 µM; reference: untreated).
The CC50 of `[N-]=[N+]=N[C@]1(CO)O[C@@H](n2ccc(N)nc2=O)[C@@H](F)[C@@H]1O` is reported as greater than 100000 nM (2209-23 HCV replicon cells; cytotoxicity).

Excerpt of the above:
For `O=C(O)c1cn(C2CC2)c2cc(N3CCNCC3)c(F)cc2c1=O`, activity outcome read “inactive” (HepG2; mitochondrial membrane potential; concentration not given, Tox21).
The remaining activity of `Nc1cc(C(F)(F)F)c(-c2nc(N3CCOCC3)nc(N3CCOCC3)n2)cn1` is reported as 86% (STK36 (Homo sapiens, UniProt Q9NRP7); enzyme activity; 10 µM; reference: untreated).
